# Assay results from different studies.
# Lines come from different studies, so protocols differ.
# Cell line: SK-BR-3
Structure (SMILES),read-out,technique,time,measurement,value
CCOC(=O)/C=C1\S/C(=N\N=C\c2cccc3cc4ccccc4nc23)N(c2ccc(OC)cc2)C1=O,cell growth or viability,MTT,48 h,IC50,> 50000 nM
CC(C)c1ccc(N(C)c2ccc3c(c2)OCC[C@H]3CNc2cnccc2C(=O)O)cc1,cell viability,CellTiter-Glo,7 days,IC50,7.14 nM
COc1ccc(N2C(=O)CS/C2=N\N=C\c2cccc3cc4ccccc4nc23)cc1,cell growth or viability,MTT,48 h,IC50,> 50000 nM
Cc1sc2c(c1C)C(c1ccc(Cl)cc1)=N[C@@H](CC(=O)NCCN(C)CCCCNC(=O)CCCCOc1cccc3c1C(=O)N([C@H]1CCC(=O)NC1=O)C3=O)c1nnc(C)n1-2,cell growth or viability,CCK-8,72 h,IC50,1130 nM
COc1cccc(N2C(=O)CS/C2=N\N=C\c2cccc3cc4ccccc4nc23)c1,cell growth or viability,MTT,48 h,IC50,> 50000 nM
COC(=O)N1c2ccc3c(nc(Cc4ccccc4)n3[C@@H]3CCC[C@@H](C(=O)O)C3)c2CC[C@@H]1C,cell growth or viability,ATP luminescence,10 days,IC50,2870 nM
CCN(C(=O)c1cc(F)ccc1Oc1nncnc1N1CCC2(C1)CN([C@H](CCCN(C)CCOC)C(C)C)C2)C(C)C,cell growth or viability,,7 days,GI50,> 10000 nM
CCOc1cncc(-c2ccc(NC(=O)C3(c4ccnc(NS(=O)(=O)C5CC5)n4)CCOCC3)nc2)n1,cell growth or viability,ATP luminescence,72 h,IC50,39 nM
CNS(=O)(=O)Nc1nccc(Cc2c(C)c3ccc(Oc4ncccc4F)cc3oc2=O)c1F,cell viability,,7 days,IC50,> 1000 nM

# Some of these lines once more:
Structure (SMILES),read-out,technique,time,measurement,value
CC(C)c1ccc(N(C)c2ccc3c(c2)OCC[C@H]3CNc2cnccc2C(=O)O)cc1,cell viability,CellTiter-Glo,7 days,IC50,7.14 nM
COc1ccc(N2C(=O)CS/C2=N\N=C\c2cccc3cc4ccccc4nc23)cc1,cell growth or viability,MTT,48 h,IC50,> 50000 nM
